Assay results from different studies.
Each line is one published result; not all experiments were run side by side. Values joined by “and” are separate records of one study, mostly repeats; a detail may differ. ± marks the error that the study gave.
lasR: Transcriptional activator protein LasR (lasR, Pseudomonas aeruginosa, UniProt P25084)
Oprm1: Mu-type opioid receptor (Oprm1, Rattus norvegicus, UniProt P33535)
Sequence of UniProt P33535 (whole entry, looked up): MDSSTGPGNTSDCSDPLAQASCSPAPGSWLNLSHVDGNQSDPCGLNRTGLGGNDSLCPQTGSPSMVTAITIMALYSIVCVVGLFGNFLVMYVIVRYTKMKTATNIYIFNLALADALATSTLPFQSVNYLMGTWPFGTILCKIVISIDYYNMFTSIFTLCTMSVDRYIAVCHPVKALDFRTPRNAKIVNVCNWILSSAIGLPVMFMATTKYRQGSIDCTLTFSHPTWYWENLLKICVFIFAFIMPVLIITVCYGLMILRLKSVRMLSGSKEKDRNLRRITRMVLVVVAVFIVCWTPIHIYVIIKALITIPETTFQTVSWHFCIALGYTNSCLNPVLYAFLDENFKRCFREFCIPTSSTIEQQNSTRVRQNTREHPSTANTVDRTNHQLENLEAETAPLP
Uncharacterized hydrolase SAUSA300_2518: Uncharacterized hydrolase SAUSA300_2518 (Staphylococcus aureus, UniProt Q2FDS6)
sdiA: Regulatory protein SdiA (sdiA, Escherichia coli, UniProt P07026)
Sequence of UniProt Q8K1N1 (whole entry, looked up): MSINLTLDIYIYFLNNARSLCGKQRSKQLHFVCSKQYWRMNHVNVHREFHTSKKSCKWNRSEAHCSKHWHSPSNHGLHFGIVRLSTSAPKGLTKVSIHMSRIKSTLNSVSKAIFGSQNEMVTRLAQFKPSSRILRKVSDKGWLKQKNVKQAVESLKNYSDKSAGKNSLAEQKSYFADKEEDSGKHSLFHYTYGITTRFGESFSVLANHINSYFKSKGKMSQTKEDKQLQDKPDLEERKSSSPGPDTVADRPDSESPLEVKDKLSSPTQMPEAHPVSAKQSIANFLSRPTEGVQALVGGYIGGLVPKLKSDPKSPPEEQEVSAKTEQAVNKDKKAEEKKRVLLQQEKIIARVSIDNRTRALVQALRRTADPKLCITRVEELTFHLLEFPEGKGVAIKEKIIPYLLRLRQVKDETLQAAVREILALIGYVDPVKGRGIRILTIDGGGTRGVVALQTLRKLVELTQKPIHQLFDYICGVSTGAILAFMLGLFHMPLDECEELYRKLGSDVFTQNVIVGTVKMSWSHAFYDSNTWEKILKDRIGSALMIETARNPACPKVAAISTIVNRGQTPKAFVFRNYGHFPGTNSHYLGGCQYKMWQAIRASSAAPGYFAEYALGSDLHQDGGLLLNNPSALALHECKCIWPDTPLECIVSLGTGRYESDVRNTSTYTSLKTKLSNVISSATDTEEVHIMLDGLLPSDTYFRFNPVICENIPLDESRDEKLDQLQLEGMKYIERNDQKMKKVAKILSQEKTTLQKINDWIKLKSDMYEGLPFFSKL
Sequence of UniProt P41743 (whole entry, looked up): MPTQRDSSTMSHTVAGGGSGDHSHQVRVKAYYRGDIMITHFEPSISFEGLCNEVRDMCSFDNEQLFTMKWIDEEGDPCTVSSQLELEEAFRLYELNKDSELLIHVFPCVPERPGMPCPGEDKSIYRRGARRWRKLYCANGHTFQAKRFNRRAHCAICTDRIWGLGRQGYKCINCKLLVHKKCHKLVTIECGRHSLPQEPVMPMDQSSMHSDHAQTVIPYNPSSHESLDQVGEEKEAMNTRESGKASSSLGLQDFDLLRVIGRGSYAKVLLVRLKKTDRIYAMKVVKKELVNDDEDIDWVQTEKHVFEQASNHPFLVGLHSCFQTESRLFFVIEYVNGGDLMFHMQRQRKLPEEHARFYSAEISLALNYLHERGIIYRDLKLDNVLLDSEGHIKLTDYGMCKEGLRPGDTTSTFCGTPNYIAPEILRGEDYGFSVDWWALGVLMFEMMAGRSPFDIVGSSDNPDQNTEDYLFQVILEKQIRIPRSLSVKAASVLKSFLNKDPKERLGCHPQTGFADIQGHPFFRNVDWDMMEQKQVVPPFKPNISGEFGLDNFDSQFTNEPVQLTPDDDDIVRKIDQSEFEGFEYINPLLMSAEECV
Sequence of UniProt Q14145 (whole entry, looked up): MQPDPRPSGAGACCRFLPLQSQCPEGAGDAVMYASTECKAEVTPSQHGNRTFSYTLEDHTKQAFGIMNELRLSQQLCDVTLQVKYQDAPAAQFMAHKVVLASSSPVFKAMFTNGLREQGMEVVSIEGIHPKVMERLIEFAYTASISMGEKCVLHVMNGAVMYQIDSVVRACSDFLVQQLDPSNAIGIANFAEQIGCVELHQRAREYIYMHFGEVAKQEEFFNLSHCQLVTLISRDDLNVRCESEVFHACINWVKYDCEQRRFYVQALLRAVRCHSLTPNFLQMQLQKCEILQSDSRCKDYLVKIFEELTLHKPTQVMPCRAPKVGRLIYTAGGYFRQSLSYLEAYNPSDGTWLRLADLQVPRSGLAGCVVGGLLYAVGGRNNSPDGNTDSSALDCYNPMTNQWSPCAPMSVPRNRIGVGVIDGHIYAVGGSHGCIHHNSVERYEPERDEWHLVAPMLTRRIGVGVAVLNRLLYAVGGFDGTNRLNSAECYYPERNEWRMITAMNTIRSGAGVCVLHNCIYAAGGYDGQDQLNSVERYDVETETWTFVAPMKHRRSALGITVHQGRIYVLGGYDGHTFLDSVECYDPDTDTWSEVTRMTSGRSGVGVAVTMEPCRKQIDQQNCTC
Sequence of UniProt Q9Y2J8 (whole entry, looked up): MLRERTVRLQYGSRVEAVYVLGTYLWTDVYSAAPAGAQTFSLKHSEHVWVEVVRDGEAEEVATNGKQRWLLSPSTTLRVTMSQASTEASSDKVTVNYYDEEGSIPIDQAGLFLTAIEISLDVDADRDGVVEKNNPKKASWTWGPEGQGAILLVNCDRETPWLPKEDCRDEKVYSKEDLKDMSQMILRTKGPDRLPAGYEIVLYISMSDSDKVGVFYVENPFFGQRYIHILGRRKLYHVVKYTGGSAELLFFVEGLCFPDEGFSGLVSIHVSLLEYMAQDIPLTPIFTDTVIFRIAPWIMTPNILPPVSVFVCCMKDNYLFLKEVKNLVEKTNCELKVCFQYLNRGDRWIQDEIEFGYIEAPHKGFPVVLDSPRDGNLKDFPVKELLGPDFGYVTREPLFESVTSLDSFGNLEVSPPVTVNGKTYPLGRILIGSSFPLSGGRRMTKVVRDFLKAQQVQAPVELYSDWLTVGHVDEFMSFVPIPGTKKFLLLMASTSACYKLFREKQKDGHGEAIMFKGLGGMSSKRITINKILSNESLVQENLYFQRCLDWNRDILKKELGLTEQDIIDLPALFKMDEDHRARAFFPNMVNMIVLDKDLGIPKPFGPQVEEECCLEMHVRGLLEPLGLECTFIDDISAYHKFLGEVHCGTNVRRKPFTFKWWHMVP
Sequence of UniProt P07026 (whole entry, looked up): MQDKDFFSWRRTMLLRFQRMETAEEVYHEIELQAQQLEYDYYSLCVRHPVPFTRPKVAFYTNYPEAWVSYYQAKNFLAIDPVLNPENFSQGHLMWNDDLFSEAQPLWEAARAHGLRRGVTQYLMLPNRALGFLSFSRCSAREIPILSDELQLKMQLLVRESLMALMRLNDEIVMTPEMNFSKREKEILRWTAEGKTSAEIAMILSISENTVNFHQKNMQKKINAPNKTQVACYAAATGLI
Sequence of UniProt Q96GD4 (whole entry, looked up): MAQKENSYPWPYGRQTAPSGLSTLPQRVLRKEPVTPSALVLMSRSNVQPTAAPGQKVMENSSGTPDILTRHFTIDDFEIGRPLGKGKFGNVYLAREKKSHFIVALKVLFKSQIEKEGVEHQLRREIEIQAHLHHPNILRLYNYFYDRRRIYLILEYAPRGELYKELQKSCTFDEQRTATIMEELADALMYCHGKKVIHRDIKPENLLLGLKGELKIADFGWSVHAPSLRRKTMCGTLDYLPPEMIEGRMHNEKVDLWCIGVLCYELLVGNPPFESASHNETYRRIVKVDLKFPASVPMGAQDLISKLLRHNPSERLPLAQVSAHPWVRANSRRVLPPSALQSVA
Sequence of UniProt P0A988 (whole entry, unmodified, looked up): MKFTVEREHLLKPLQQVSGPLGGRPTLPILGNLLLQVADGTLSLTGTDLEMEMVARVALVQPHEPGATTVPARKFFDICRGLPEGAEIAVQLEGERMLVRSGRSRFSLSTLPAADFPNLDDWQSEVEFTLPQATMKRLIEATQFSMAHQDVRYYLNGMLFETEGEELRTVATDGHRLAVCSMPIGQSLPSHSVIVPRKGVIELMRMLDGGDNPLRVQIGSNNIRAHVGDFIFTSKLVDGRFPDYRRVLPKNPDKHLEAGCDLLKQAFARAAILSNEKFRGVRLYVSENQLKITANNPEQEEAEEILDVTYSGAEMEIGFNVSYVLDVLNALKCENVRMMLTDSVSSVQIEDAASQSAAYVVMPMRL
Sequence of UniProt P08913 (whole entry, looked up): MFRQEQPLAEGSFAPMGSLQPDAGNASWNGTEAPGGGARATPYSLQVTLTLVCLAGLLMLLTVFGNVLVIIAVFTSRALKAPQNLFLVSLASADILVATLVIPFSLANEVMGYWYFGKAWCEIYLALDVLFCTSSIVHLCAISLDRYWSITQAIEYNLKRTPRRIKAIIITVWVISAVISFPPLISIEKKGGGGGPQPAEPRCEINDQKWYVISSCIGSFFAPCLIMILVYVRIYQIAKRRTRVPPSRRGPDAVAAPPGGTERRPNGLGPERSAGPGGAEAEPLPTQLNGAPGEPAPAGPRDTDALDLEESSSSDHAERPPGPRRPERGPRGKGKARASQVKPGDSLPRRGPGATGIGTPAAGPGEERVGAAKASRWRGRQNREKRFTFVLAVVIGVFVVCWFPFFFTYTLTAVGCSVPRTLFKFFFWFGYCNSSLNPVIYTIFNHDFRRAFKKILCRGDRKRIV
Sequence of UniProt Q7TMR0 (whole entry, looked up): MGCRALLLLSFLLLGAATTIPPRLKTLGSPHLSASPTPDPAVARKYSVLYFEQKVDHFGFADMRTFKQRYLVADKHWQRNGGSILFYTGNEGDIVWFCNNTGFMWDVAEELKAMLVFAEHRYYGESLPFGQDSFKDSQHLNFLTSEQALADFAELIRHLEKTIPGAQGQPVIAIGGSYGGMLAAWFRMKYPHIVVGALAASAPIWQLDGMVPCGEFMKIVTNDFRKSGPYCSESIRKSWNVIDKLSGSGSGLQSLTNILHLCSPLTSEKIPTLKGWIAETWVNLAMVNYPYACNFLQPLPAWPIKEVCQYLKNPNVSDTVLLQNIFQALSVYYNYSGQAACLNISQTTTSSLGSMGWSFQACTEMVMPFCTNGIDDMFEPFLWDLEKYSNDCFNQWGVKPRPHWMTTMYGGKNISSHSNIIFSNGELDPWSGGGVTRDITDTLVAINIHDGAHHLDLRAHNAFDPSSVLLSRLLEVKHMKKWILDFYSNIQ

CN(C)CCCSC(=S)N1CCN(C(=O)/C=C/c2coc3ccccc3c2=O)CC1
MST response (Nucleoprotein (N, Tomato spotted wilt virus, UniProt P25999, R94A); binding, microscale thermophoresis; 0.9766 µM; dose series): 842 a.u.

CS(C)(=O)=Nc1ccc(-c2ccc(-c3nc4cc(O[C@@H]5CO[C@H]6[C@@H]5OC[C@H]6O)[nH]c4cc3F)cc2)cc1
inhibition (NIM1K (Homo sapiens, UniProt Q8IY84); enzyme activity, inhibitor; 10 µM): 10%

O=C(CCCCCCCCCN=C=S)CC(=O)N[C@H]1CCOC1=O
potency ratio (lasR; reporter gene, agonist; relative to: EC50 PAO-JP2 over E. coli JLD271): 150

CCCC[C@H]1CNCCN1C[C@@H]1CCCN1C[C@H](CC1CCCCC1)N1CCN(CCc2ccc(Cl)c(Cl)c2)[C@H]([C@H](C)CC)C1
remaining binding (Oprm1; radioligand binding; rat brain membranes; 500 nM, pH 7.5, 25 °C, with: 0.87 nM [3H]DAMGO): 105 ± 6.43%

CCCCCCCCCCCCn1nnc(CC(=O)O)n1
antagonist activity (lasR; reporter gene, antagonist; Escherichia coli, JLD271 with LasR plasmid; concentration not given, with: OdDHL 2 nM): inactive

C[C@H](N)C(=O)N[C@@H](CCCNC(=N)N)C(=O)N[C@H](C(=O)N[C@@H](CCCC[N+](C)(C)C)C(=O)N[C@@H](CCC(N)=O)C(=O)N[C@H](C(=O)N[C@@H](C)C(=O)N[C@@H](CCCNC(N)=O)C(=O)N[C@@H](CCCCN)C(=O)N[C@@H](CO)C(=O)N[C@H](C(=O)NCC(=O)NCC(=O)N[C@@H](CCCCN)C(=O)N[C@@H](C)C(=O)N[C@@H](Cc1ccc(O)cc1)C(N)=O)[C@@H](C)O)[C@@H](C)O)[C@@H](C)O
preference over Kme3 peptide (SGF29, TTD (Homo sapiens, UniProt Q96ES7); binding, ITC; relative to: Kme3 peptide KD over compound KD): 1.7 fold

N[C@H](C(=O)N1CCCC1)C1CCN(c2nccc3c(-c4ncc(Cl)cc4Cl)cccc23)CC1
melting temperature (PADI2 (Homo sapiens, UniProt Q9Y2J8); thermal shift; 0.9507 µM): 64 °C and 63 °C

Cc1ccc(OS(=O)(=O)F)c(C(=O)Nc2ccncc2)c1
remaining activity (Uncharacterized hydrolase SAUSA300_2518; enzyme activity, inhibitor, fluorogenic substrate; 0.01 µM): 91.2% and 95.1% and 92%

C#CCCCCOc1ccc2c(c1)CCCN2C(=O)CCl
reactivity ratio (TXNRD1 (Homo sapiens, UniProt Q16881); mass spectrometry profiling; H460 cell lysate; 100 µM over 10 µM, UniProt Q16881; relative to: high over low concentration): 1.53

O=C1NC(=O)c2c1c1cc(F)c[n+]3c1c1c2c2cc(O)ccc2[n]1[Ru-4]312([N]=C=S)[S+]3CC[S+]1CC[S+]2CC3 (centres unmarked)
remaining activity (TSSK2 (Homo sapiens, UniProt Q96PF2); enzyme activity; 100 nM, human enzyme, with: 10 µM ATP; relative to: untreated): 61%

CC(C)CC(O)(CC(C)C)c1cn(C(=O)N2CCCC2)nn1
activity ratio (Lysosomal Pro-X carboxypeptidase (Mus musculus, UniProt Q7TMR0); enzyme activity, inhibitor, competitive ABPP-SILAC, refers to: Prcp; mouse T-cells; concentration not given, 4 h, treated in situ; relative to: DMSO): 1.25

O=C(O)c1cccc(CP(=O)(O)O)n1
koff (Metallo-beta-lactamase type 2 (Serratia marcescens, UniProt P52699); enzyme activity, inhibitor; with: nitrocefin): 0.0015 ± 0.000167 s⁻¹

CN(C)[C@H]1C[C@@]23CC[C@@]4(O2)C(=CC[C@]2(C)[C@@H](c5ccc6ccncc6c5)CC[C@H]24)C=C3[C@@H](O)[C@@H]1O
inhibition (ARAF (Homo sapiens, UniProt P10398); ATP probe labelling, inhibitor, KiNativ profiling; 1 µM): -4%

CCOC(=O)[C@@H]1Cc2c(cc([N+](=O)[O-])cc2[N+](=O)[O-])[C@H](O)[C@]12C(=O)Nc1ccc(Br)cc12
remaining binding (Aurora kinase B (AURKB, Homo sapiens, UniProt Q96GD4); binding, competition with immobilised ligand; 0.1 µM): 83%

O=C(COc1ccc(I)cc1)N[C@H]1CCOC1=O
Emax (sdiA): 106%

CCO[C@H]1[C@H](O)[C@@H](N)[C@@H](O[C@H]2[C@H](O[C@@H]3O[C@H](CO)[C@@H](O[C@H]4O[C@@H](CN)[C@@H](O)[C@H](O)[C@H]4N)[C@H]3O)[C@@H](O)[C@H](N)C[C@@H]2N)O[C@@H]1CO
specific binding (ADRA2A (Homo sapiens, UniProt P08913); radioligand binding; 10 µM, 1% DMSO): 1%

CCCCCCCCCC(=O)CC(=O)N[C@H]1CCOC1=O
agonist activity (lasR; reporter gene, agonist; Pseudomonas aeruginosa PAO-JP2; 100 µM, plasI-LVAgfp reporter; relative to: OdDHL at same concentration): 88%

CCc1nnc(-c2c(OC)cc(-c3cnc4cc(-c5cnn(C)c5)ccn34)cc2OC)o1
inhibition of specific binding (Maoa (Rattus norvegicus, UniProt P21396); 10 µM): 7%

CCCC[C@H]1CNCCN1C[C@@H]1CCCN1C[C@@H](Cc1ccc2ccccc2c1)N1CCN(CCCC2CCCC2)[C@H](Cc2ccc(O)cc2)C1
remaining binding (Oprm1; radioligand binding; rat brain membranes; 500 nM, pH 7.5, 25 °C, with: 0.87 nM [3H]DAMGO): 98.2 ± 5.74%

C[C@@H](NC(=O)[C@@H](N)Cc1ccc(O)cc1)C(=O)NCC(=O)N[C@@H](Cc1ccccc1)C(=O)N[C@H](CCCNC(=N)N)C(=O)N[C@@H](CCCNC(=N)N)C(=O)N1CCC[C@H]1C(=O)N1C[C@H](O)C[C@H]1C(=O)NCC(=O)N[C@@H](Cc1cccs1)C(=O)N[C@@H](CO)C(=O)N1Cc2ccccc2C[C@@H]1C(=O)N1[C@H](C(=O)N[C@@H](CCCNC(=N)N)C(=O)O)C[C@@H]2CCCC[C@@H]21
antagonist activity (B2 bradykinin receptor (Cavia porcellus, UniProt O70526); antagonist; guinea pig ileum; with: naloxone 1 µM): 1.7 nM

[CH3][Ti+2][O]C(=O)c1ccc([S][Au][PH](c2ccccc2)(c2ccccc2)c2ccccc2)cc1.c1cc[cH-]c1.c1cc[cH-]c1
remaining activity (PRKCI (Homo sapiens, UniProt P41743); kinase activity, HotSpot radiometric; 1 µM, with: ATP 10 µM; relative to: vehicle): 95% and 99.7%

CC(C)[C@@H]1NC(=O)[C@H](CCC(=O)O)NC(=O)CNC(=O)[C@H]([C@@H](C)O)NC(=O)[C@H](CCC(=O)O)NC(=O)[C@H](CCC(=O)O)NC(=O)[C@H](CC(=O)O)NC(=O)[C@H](C(C)C)NC(=O)[C@H]([C@@H](C)O)NC(=O)CNC(=O)[C@H](CC(=O)O)NC(=O)[C@H](CC(N)=O)NC(=O)[C@H](Cc2ccc(O)cc2)NC1=O
fluorescence polarization (KEAP1 (Homo sapiens, UniProt Q14145); Keap1-Nrf2 binding, inhibitor, competitive FP; 0.0977 µM, 30 min, with: Nrf2 peptide probe; lower = stronger inhibition): 0.434 a.u. and 0.617 a.u.

O=C(CCCc1ccccc1)NC1CCOC1=O (centres unmarked)
agonist activity (lasR; reporter gene, agonist; Pseudomonas aeruginosa PAO-JP2; 100 µM, plasI-LVAgfp reporter; relative to: OdDHL at same concentration): 0%

COc1cc2c(cc1S(=O)(=O)F)C(=O)NCCC2
remaining activity (Uncharacterized hydrolase SAUSA300_2518; enzyme activity, inhibitor, fluorogenic substrate; 10 µM): 93.4% and 92.3% and 92.8%

CC(C)[C@H]1NC(=O)C[C@H]2/C=C/CCSSC[C@@H](NC1=O)C(=O)N[C@H](Cc1cccc3ccccc13)C(=O)NCC(=O)O2
inhibition (MAPK7 (Homo sapiens, UniProt Q13164); enzyme activity, inhibitor; 10 µM): 3.9%

CCC(C)C1CN(C(CC2CCCCC2)CN2CCCC2CN2CCNCC2CO)CCN1CCCC1CCCC1 (centres unmarked)
remaining binding (Oprm1; radioligand binding; rat brain membranes; 500 nM, pH 7.5, 25 °C, with: 0.87 nM [3H]DAMGO): 105 ± 6.16%

CC(=O)N[C@@H](CCC(N)=O)C(=O)N[C@@H](CC1CCCCC1)C(=O)N[C@@H](CNC(=O)CCl)C(=O)N[C@@H](CC(C)C)C(=O)N[C@@H](Cc1ccccc1)C(=O)O
ΔG (Beta sliding clamp (Escherichia coli, UniProt P0A988); binding, isothermal titration calorimetry; 22 °C): -9.31 kcal/mol

O=C(N1CCCCC1)n1ccnn1
SILAC activity ratio (Pnpla8 (Mus musculus, UniProt Q8K1N1); probe labelling, inhibitor, competitive ABPP-SILAC; mouse T cells; concentration not given, 4 h, single peptide; relative to: treated over DMSO cells, lower = stronger inhibition): 2.07 and 1.56 and 2.15 and 2.63

COc1ccccc1-c1n[nH]c2nc(N[C@H]3CC[C@H](NS(=O)(=O)CC(C)C)CC3)ncc12
Hill slope (cdc2-related kinase 12 (Leishmania donovani, UniProt A0A3S7WQK2); affinity bead binding, bead competition pull-down; Leishmania donovani extract; analogue affinity beads): 2.5

O=C(N[C@@H]1c2ccccc2C[C@H]1N1CCCC1)c1ccc(-c2ccnc3[nH]ccc23)nc1
remaining binding (Ribosomal protein S6 kinase alpha-6, N-terminal kinase domain (RPS6KA6, Homo sapiens, UniProt Q9UK32); binding, competition with immobilised ligand; 3 µM): 19%

O=C(Nc1ccccc1NC(=O)c1cccc(Cl)c1)c1cccc(Cl)c1
potency ratio (lasR; reporter gene, antagonist; relative to: IC50 PAO-JP2 over E. coli JLD271): 1

O=C(Cc1ccc(Br)cc1)N[C@H]1CCOC1=O
Emax (sdiA): 93.8%

Repeated from above:
COc1ccccc1-c1n[nH]c2nc(N[C@H]3CC[C@H](NS(=O)(=O)CC(C)C)CC3)ncc12
Hill slope (cdc2-related kinase 12 (Leishmania donovani, UniProt A0A3S7WQK2); affinity bead binding, bead competition pull-down; Leishmania donovani extract; analogue affinity beads): 2.5

O=C(N[C@@H]1c2ccccc2C[C@H]1N1CCCC1)c1ccc(-c2ccnc3[nH]ccc23)nc1
remaining binding (Ribosomal protein S6 kinase alpha-6, N-terminal kinase domain (RPS6KA6, Homo sapiens, UniProt Q9UK32); binding, competition with immobilised ligand; 3 µM): 19%

O=C(Nc1ccccc1NC(=O)c1cccc(Cl)c1)c1cccc(Cl)c1
potency ratio (lasR; reporter gene, antagonist; relative to: IC50 PAO-JP2 over E. coli JLD271): 1

O=C(Cc1ccc(Br)cc1)N[C@H]1CCOC1=O
Emax (sdiA): 93.8%
